Assay results collected from several papers.
± gives the spread as reported.

COc1cc(-c2cncc(-c3ccc(N4CCNCC4)cc3)c2C)cc(O[11CH3])c1F  time to peak brain SUV (dynamic PET; Sprague-Dawley rats male, whole brain; intravenous): ≤ 1 min
C[C@@H](NC(=O)[C@@H](CCC(N)=O)NC(=O)[C@@H](C)NC(=O)[C@@H](CCCCN)NC(=O)[C@@H](CCC(N)=O)NC(=O)[C@@H](C)NC(=O)[C@@H](CCCCN)NC(=O)[C@@H](CCC(N)=O)NC(=O)[C@@H](C)NC(=O)[C@@H](CCC(N)=O)NC(=O)[C@@H](CCCCN)NC(=O)[C@@H](C)NC(=O)[C@@H](CCC(N)=O)NC(=O)[C@@H](CCCCN)NC(=O)[C@@H](C)NC(=O)[C@@H](CCC(N)=O)NC(=O)[C@@H](C)NC(=O)[C@@H](CCCCN)NC(=O)[C@@H](CCC(N)=O)NC(=O)[C@@H](C)NC(=O)[C@@H](CCCCN)NC(=O)[C@@H](CO)NC(=O)[C@@H](Cc1ccc(O)cc1)NC(=O)CNC(=O)CNC(=O)CN)C(=O)N[C@H](CCCCN)C(=O)N[C@H](CCC(N)=O)C(=O)N[C@H](C)C(=O)N[C@H](CCCCN)C(=O)N[C@H](CCC(N)=O)C(=O)O  transition midpoint (helical structure, circular dichroism; PBS; 0.05 mg/mL, pH 7.5): ~16 % TFE
CN(C)C(CNC(=O)Nc1cc(C(F)(F)F)ccc1N1CCOCC1)c1ccncc1 (centres unmarked)  serum total protein (mouse, serum; intraperitoneal, 180 mg/kg single dose): 4.3 g/dL
COc1ccc(C)cc1NC(=O)OC1CC2CCCC(C1)N2Cc1ccc(CC[18F])cc1 (centres unmarked)  tissue uptake (BALB/c mice, EMT6 tumour, kidney; 5 min): 22.4 ± 2.91 %ID/g
C=C(C)C12OC3(c4ccccc4)OC1C1C4OC4(CO)C(O)C4(O)C(=O)C(C)=CC4C1(O3)C(C)C2OC(=O)c1ccccc1 (centres unmarked)  oral bioavailability (ICR mice, plasma; oral, 1 mg/kg): 2.21%
O=C([O-])C[N+]12CC(=O)[O][Re-2]1[O]P(=O)([O-])C2.[C-]#[O+].[C-]#[O+].[C-]#[O+] (centres unmarked)  isomer fraction at equilibrium (HPLC; aqueous solution; 1 d, pH 11, room temperature): 59%
CC(C)C[C@H](NC(=O)[C@H](CCCCN)NC(=O)[C@H](CCC(=O)O)NC(=O)[C@H](C)NC(=O)[C@@H](NC(=O)[C@H](CCCCN)NC(=O)[C@H](CC(=O)O)NC(=O)[C@H](Cc1ccc(O)cc1)NC(=O)[C@H](Cc1ccccc1)NC(=O)[C@H](C)NC(=O)[C@H](CCCCN)NC(=O)[C@H](CC(C)C)NC(=O)[C@H](Cc1c[nH]c2ccccc12)NC(=O)[C@@H](N)CC(=O)O)C(C)C)C(=O)N[C@@H](CCCCN)C(=O)N[C@@H](CCC(=O)O)C(=O)N[C@@H](C)C(=O)N[C@@H](Cc1ccccc1)C(=O)N1CCC[C@H]1C(=O)N[C@@H](CC(=O)O)C(=O)N[C@@H](Cc1c[nH]c2ccccc12)C(=O)N[C@@H](C)C(=O)N[C@@H](CCCCN)C(=O)N[C@@H](C)C(=O)N[C@@H](C)C(=O)N[C@@H](Cc1ccc(O)cc1)C(=O)N[C@@H](CC(=O)O)C(=O)N[C@@H](CCCCN)C(=O)N[C@@H](C)C(=O)N[C@@H](C)C(=O)N[C@@H](CCC(=O)O)C(=O)N[C@@H](CCCCN)C(=O)N[C@@H](C)C(=O)N[C@@H](CCCCN)C(=O)N[C@@H](CCC(=O)O)C(=O)N[C@@H](C)C(=O)N[C@@H](C)C(=O)O  Cmax (cynomolgus monkey female, plasma; intravenous infusion, 25 mg/kg every other day, day 27): 436 µg/mL
CCCCCCCC(=O)SCC/C=C/[C@@H]1CC(=O)NCc2nc(cs2)C2=N[C@@](C)(CS2)C(=O)N[C@@H](C(C)C)C(=O)N1  volume of distribution at steady state (female NIH Swiss mice; intravenous bolus, 5 mg/kg, two-compartment model): 12.1 L/kg
CCNc1cc2[o+]c3cc(NCC)c(C)cc3c(-c3ccccc3C(=O)OCCOCC[18F])c2cc1C  liver concentration (PET; rat; dose not given, 55 min; baseline: value at 5 min): 25%
CC(CCC(=O)NCC(=O)O)C1CCC2C3CCC4CC(OC5OC(C(=O)O)C(O)C(O)C5O)CCC4(C)C3CC(O)C12C (centres unmarked)  ratio of metabolic ratios (item: glucuronide to parent ratio; human, plasma; dose not given, sex-adjusted; baseline: C/C over T/T): 5.57
CC(C)[C@H](NC(=O)CNC(=O)[C@H](CCC(N)=O)NC(=O)[C@H](C)N)C(=O)O  subjects with moderate AE (healthy male volunteers; intravenous, 45 mg/kg/h, 2 h, together with: LPS 2 ng/kg): 0%
CC[C@H](C)[C@H](NC(=O)[C@H](CCCCN)NC(=O)CNC(=O)[C@H](CC(C)C)NC(=O)[C@@H](NC(=O)[C@H](C)NC(=O)[C@H](CCCCN)NC(=O)CNC(=O)[C@H](C)NC(=O)CNC(=O)[C@H](CCCCN)NC(=O)[C@H](CCSC)NC(=O)[C@H](CCCCN)NC(=O)[C@@H](NC(=O)[C@H](Cc1c[nH]c2ccccc12)NC(=O)[C@H](CC(C)C)NC(=O)[C@H](CCCCN)NC(=O)[C@H](CCCCN)NC(=O)[C@H](CC(C)C)NC(=O)[C@@H](N)CC(C)C)[C@@H](C)O)C(C)C)C(=O)N[C@@H](CCCCN)C(=O)NCC(=O)N[C@@H](CC(C)C)C(=O)N[C@@H](CC(C)C)C(=O)O  Stern-Volmer constant (acrylamide quenching; POPE:DOPG 3:1 vesicles; 2 µM, 250 µM total lipid, together with: acrylamide): 1.86 ± 0.01 M⁻¹
[11CH3]n1c(=O)n(CCCO)c(=O)c2c1nc(Oc1cccc(OC(F)(F)F)c1)n2Cc1ccc(Cl)cc1  maximum SUV (PET; cynomolgus monkey, male, whole brain): ~1.1
O=C(O)CC[C@H](NC(=O)O[C@@H](CCCCNC(=O)c1ccc([18F])cc1)C(=O)O)C(=O)O  tissue uptake (mouse, PC-3 PIP/flu xenografts, small intestine; 180 min): 0.08 ± 0.04 %ID/g
CC[C@H](C)[C@H](NC(=O)[C@H](C)NC(=O)CNC(=O)[C@@H](N)CCSC)C(=O)N[C@@H](C)C(=O)N[C@@H](CCCCN)C(=O)N[C@@H](CCCNC(=N)N)C(=O)N[C@H](C(=O)N[C@@H](C)C(=O)N[C@@H](CCCCN)C(=O)N[C@@H](Cc1ccccc1)C(=O)NCC(=O)N[C@@H](Cc1c[nH]c2ccccc12)C(=O)N1CCC[C@H]1C(=O)N[C@@H](Cc1ccccc1)C(=O)N[C@H](C(=O)N[C@@H](CCCCN)C(=O)N[C@@H](CCCCN)C(=O)N[C@@H](Cc1ccccc1)C(=O)N[C@@H](Cc1ccc(O)cc1)C(=O)N[C@@H](CCCCN)C(=O)N[C@@H](CCC(N)=O)C(=O)N[C@H](C(=O)N[C@@H](CCSC)C(=O)N[C@@H](CCC(N)=O)C(=O)N[C@@H](Cc1ccccc1)C(=O)N[C@H](C(=O)NCC(=O)N[C@@H](CCC(N)=O)C(=O)NCC(=O)N[C@@H](Cc1c[nH]c2ccccc12)C(=O)N[C@H](C(=O)N[C@H](C(=O)N[C@@H](CC(=O)O)C(=O)N[C@@H](CCC(N)=O)C(=O)N[C@H](C(=O)N[C@@H](CCC(=O)O)C(=O)N[C@@H](CCCCN)C(=O)N[C@@H](Cc1c[nH]c2ccccc12)C(=O)N[C@@H](CC(C)C)C(=O)N[C@@H](CCCCN)C(=O)N[C@@H](CCCNC(=N)N)C(=O)N[C@@H](Cc1c[nH]cn1)C(=O)O)[C@@H](C)CC)[C@@H](C)CC)[C@@H](C)O)[C@@H](C)CC)[C@@H](C)CC)[C@@H](C)CC)C(C)C  Tm (thermal unfolding, far-UV CD; 10 mM sodium phosphate; 5-20 µM, pH 7.2): 49.1 ± 0.2 °C
O=C(O)CCn1c(=O)oc2cc(Cl)c(Cl)cc21  t1/2 (rat, plasma; intravenous, 27 mg/kg): 3 h
C[C@@H](O)[C@H](NC(=O)[C@H](CCCCN)NC(=O)[C@H](Cc1c[nH]c2ccccc12)NC(=O)CN)C(=O)N[C@@H](CCCNC(=N)N)C(=O)NC(C)(C)C(=O)N[C@@H](CCCNC(=N)N)C(=O)NC(C)(C)C(=O)N[C@H](C(=O)N[C@@H](CO)C(=O)N[C@@H](Cc1c[nH]cn1)C(=O)N[C@@H](Cc1ccc(O)cc1)C(=O)NCC(=O)O)[C@@H](C)O  granulocytes (C57BL/6 mouse, blood; intravenous, 50 mg/kg, 10 h): 7 to 13%
[2H]C([2H])([2H])C([2H])([2H])C([2H])([2H])OC(C(=O)OC1CCNCC1)(c1ccccc1)c1ccccc1  adverse events (item: oropharyngeal pain; healthy Japanese male; oral, 15 mg once daily, 16 days): 14.3%
CC[C@H](C)C(=O)N1CCC(NC(=O)Nc2ccc(OC(F)(F)F)c(F)c2)CC1  Vd/F (human, plasma; oral, 8 mg, single dose, healthy volunteers): 178 L
CC[C@H](C)[C@H](NC(=O)[C@@H](Cc1ccccc1)NC)C(=O)N[C@@H](CO)C(=O)N[C@H](CCCNC(=N)N)C(=O)N[C@@H](C(=O)N[C@H](C(=O)N[C@@H](CO)C(=O)N[C@H]1C(=O)N[C@@H](C)C(=O)N[C@@H](C2CCCCC2)C(=O)N[C@@H]([C@@H](C)CC)C(=O)O[C@H]1C)[C@@H](C)CC)[C@@H](C)CC  acetonitrile share for dissolution (acetonitrile-water; TFA salt): ~40%
CN(C)c1ccc(C(=O)NCCCCN2CCN(c3ccccc3O[11CH3])CC2)cc1  uptake ratio (male Sprague Dawley rat, lung; iv, dose not given, together with: cyclosporin A pretreatment; baseline: cyclosporin A over untreated): 0.94
CSCC[C@H](NC(=O)CNC(=O)[C@H](CC(=O)O)NC(=O)[C@@H](NC(=O)[C@@H](NC(=O)[C@@H](NC(=O)CNC(=O)[C@H](CCC(N)=O)NC(=O)[C@H](CCSC)NC(=O)[C@H](CC(=O)O)NC(=O)[C@H](C)NC(=O)[C@H](C)NC(=O)[C@@H](NC(=O)[C@H](CO)NC(=O)[C@@H](N)CC(C)C)[C@@H](C)O)C(C)C)C(C)C)[C@@H](C)O)C(=O)N[C@@H](C)C(=O)N[C@@H](CO)C(=O)NCC(=O)N[C@@H](CC(C)C)C(=O)N[C@@H](CC(=O)O)C(=O)N[C@@H](CCCCN)C(=O)N[C@@H](CC(=O)O)C(=O)N[C@@H](Cc1ccc(O)cc1)C(=O)N[C@@H](CC(C)C)C(=O)N[C@@H](CCCCN)C(=O)N1CCC[C@H]1C(=O)N[C@@H](CC(=O)O)C(=O)N[C@@H](CC(=O)O)C(=O)O  distribution half-life (human patients, serum; intravenous infusion, 2 mg/kg): 50.4 s
CSCC[C@@H]1NC(=O)[C@@H]2CSSC[C@H](NC(=O)[C@H](CO)NC(=O)[C@H](C)N)C(=O)N[C@@H](CCCNC(=N)N)C(=O)N[C@@H]([C@@H](C)O)C(=O)N3CCC[C@H]3C(=O)N[C@@H](CCCCN)C(=O)N[C@@H](CC(=O)O)C(=O)N[C@H]3CSSC[C@H](NC(=O)[C@H](CCCCN)NC(=O)[C@H](CCCNC(=N)N)NC(=O)[C@H](CC(N)=O)NC1=O)C(=O)N[C@@H](CCCCN)C(=O)N[C@H]1CSSC[C@H](NC(=O)[C@@H]4CCCN4C(=O)[C@H](CC(=O)O)NC(=O)[C@H](C)NC3=O)C(=O)N[C@@H](C)C(=O)N[C@@H](CCCCN)C(=O)N[C@@H](CCC(=O)O)C(=O)N[C@@H]([C@@H](C)O)C(=O)NCC(=O)N[C@@H](CSSC[C@@H](C(N)=O)NC(=O)[C@H](CCCNC(=N)N)NC(=O)[C@H](CC(N)=O)NC1=O)C(=O)N1CCC[C@H]1C(=O)N[C@@H](Cc1ccc(O)cc1)C(=O)NCC(=O)N[C@@H](CCCCN)C(=O)N2  Glucose (DA rat pristane-induced arthritis, serum; subcutaneous, 0.1 mg/kg single dose at onset, 21 days): 124 mg/dL

For quick reference, copied from above:
CC[C@H](C)[C@H](NC(=O)[C@H](C)NC(=O)CNC(=O)[C@@H](N)CCSC)C(=O)N[C@@H](C)C(=O)N[C@@H](CCCCN)C(=O)N[C@@H](CCCNC(=N)N)C(=O)N[C@H](C(=O)N[C@@H](C)C(=O)N[C@@H](CCCCN)C(=O)N[C@@H](Cc1ccccc1)C(=O)NCC(=O)N[C@@H](Cc1c[nH]c2ccccc12)C(=O)N1CCC[C@H]1C(=O)N[C@@H](Cc1ccccc1)C(=O)N[C@H](C(=O)N[C@@H](CCCCN)C(=O)N[C@@H](CCCCN)C(=O)N[C@@H](Cc1ccccc1)C(=O)N[C@@H](Cc1ccc(O)cc1)C(=O)N[C@@H](CCCCN)C(=O)N[C@@H](CCC(N)=O)C(=O)N[C@H](C(=O)N[C@@H](CCSC)C(=O)N[C@@H](CCC(N)=O)C(=O)N[C@@H](Cc1ccccc1)C(=O)N[C@H](C(=O)NCC(=O)N[C@@H](CCC(N)=O)C(=O)NCC(=O)N[C@@H](Cc1c[nH]c2ccccc12)C(=O)N[C@H](C(=O)N[C@H](C(=O)N[C@@H](CC(=O)O)C(=O)N[C@@H](CCC(N)=O)C(=O)N[C@H](C(=O)N[C@@H](CCC(=O)O)C(=O)N[C@@H](CCCCN)C(=O)N[C@@H](Cc1c[nH]c2ccccc12)C(=O)N[C@@H](CC(C)C)C(=O)N[C@@H](CCCCN)C(=O)N[C@@H](CCCNC(=N)N)C(=O)N[C@@H](Cc1c[nH]cn1)C(=O)O)[C@@H](C)CC)[C@@H](C)CC)[C@@H](C)O)[C@@H](C)CC)[C@@H](C)CC)[C@@H](C)CC)C(C)C  Tm (thermal unfolding, far-UV CD; 10 mM sodium phosphate; 5-20 µM, pH 7.2): 49.1 ± 0.2 °C
O=C(O)CCn1c(=O)oc2cc(Cl)c(Cl)cc21  t1/2 (rat, plasma; intravenous, 27 mg/kg): 3 h
